Experimental data pooled from the literature.
Compare with care: the assays were run in different laboratories.
ERBB2: Receptor tyrosine-protein kinase erbB-2 (ERBB2, Homo sapiens, UniProt P04626)
UniProt P08510, sequence (whole entry, unmodified, looked up): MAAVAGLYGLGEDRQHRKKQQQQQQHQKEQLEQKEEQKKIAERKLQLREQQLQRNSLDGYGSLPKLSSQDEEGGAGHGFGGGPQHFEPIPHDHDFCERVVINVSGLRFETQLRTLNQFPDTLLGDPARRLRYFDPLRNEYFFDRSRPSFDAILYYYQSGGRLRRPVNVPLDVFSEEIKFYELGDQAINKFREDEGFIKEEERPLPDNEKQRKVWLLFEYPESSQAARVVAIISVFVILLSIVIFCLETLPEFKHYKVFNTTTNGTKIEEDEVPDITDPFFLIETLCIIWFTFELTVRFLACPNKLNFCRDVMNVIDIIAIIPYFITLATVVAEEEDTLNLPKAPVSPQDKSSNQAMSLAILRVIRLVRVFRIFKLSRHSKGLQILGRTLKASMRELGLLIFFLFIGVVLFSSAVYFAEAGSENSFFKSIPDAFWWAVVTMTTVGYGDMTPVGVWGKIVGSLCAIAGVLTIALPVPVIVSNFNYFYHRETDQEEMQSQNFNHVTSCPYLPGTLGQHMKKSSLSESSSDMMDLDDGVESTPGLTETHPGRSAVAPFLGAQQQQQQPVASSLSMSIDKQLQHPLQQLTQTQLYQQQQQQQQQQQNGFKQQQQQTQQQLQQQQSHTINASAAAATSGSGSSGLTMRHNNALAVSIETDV
UniProt P00811, sequence (whole entry, looked up): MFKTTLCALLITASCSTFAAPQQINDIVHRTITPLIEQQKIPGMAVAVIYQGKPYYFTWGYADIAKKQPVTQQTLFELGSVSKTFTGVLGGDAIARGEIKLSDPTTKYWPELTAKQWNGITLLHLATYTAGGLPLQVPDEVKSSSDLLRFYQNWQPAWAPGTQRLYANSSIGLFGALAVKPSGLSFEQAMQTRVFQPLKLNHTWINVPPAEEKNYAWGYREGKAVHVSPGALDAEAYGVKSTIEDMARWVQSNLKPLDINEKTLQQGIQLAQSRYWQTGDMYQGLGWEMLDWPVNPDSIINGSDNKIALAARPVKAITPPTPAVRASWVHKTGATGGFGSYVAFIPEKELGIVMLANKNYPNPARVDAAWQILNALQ
UniProt P50552, sequence (whole entry, looked up): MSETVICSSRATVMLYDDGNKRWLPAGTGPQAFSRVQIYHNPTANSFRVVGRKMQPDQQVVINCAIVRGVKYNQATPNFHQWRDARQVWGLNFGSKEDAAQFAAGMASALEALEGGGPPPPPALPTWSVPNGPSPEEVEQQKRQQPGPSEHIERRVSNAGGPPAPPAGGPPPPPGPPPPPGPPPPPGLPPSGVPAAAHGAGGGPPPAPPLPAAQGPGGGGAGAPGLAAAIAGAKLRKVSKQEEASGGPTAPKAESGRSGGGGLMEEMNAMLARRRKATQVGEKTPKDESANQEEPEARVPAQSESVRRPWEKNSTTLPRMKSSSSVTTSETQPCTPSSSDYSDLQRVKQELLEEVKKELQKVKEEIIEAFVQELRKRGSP
UniProt Q9NZQ7, sequence (whole entry, looked up): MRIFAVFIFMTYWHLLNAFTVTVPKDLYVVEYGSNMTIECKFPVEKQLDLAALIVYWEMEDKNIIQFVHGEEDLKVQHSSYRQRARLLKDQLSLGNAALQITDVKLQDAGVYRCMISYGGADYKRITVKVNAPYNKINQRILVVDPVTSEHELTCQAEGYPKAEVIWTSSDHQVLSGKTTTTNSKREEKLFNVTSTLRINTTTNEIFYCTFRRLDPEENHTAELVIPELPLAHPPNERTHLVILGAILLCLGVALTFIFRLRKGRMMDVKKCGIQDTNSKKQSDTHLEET
UniProt Q9P286, sequence (whole entry, looked up): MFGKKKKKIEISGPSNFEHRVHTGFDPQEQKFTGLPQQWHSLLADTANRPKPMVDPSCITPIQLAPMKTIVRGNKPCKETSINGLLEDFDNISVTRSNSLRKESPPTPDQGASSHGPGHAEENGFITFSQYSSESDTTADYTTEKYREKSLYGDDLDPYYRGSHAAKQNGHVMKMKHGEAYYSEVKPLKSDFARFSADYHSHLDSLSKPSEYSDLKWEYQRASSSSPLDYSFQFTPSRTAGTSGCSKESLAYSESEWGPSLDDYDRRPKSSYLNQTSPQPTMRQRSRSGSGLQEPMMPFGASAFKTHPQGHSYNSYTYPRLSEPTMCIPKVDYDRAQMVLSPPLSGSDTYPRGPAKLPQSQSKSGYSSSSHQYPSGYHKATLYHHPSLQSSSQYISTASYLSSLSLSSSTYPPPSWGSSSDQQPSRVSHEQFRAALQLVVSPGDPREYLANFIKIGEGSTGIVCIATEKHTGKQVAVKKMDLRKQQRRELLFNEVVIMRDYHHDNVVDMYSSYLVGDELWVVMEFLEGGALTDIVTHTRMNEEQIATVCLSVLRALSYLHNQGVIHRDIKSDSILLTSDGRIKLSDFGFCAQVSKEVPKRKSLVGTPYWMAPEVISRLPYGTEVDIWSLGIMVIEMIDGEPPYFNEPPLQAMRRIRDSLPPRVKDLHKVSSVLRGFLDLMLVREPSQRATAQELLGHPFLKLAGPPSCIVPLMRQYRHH

SMILES	target	assay	system	setting	Kd [µM]
CC[C@H](C)[C@H](NC(=O)[C@H](CCCCN)NC(=O)[C@H](C)NC(=O)[C@H](CCCNC(=N)N)NC(=O)[C@H](CCCCN)NC(=O)[C@H](CCC(N)=O)NC(=O)[C@H](CCC(N)=O)NC(=O)[C@H](CC(N)=O)NC(=O)[C@@H](NC(=O)[C@H](CC(C)C)NC(=O)[C@H](CC(N)=O)NC(=O)[C@@H]1CCCN1C(=O)[C@H](CS)NC(=O)[C@H](CC(C)C)NC(=O)[C@H](C)NC(=O)[C@H](C)NC(=O)[C@H](CCC(=O)O)NC(=O)[C@H](Cc1c[nH]c2ccccc12)NC(=O)[C@H](Cc1ccc(O)cc1)NC(=O)[C@H](CCCNC(=N)N)NC(=O)[C@H](CC(N)=O)NC(=O)[C@H](CCCNC(=N)N)NC(=O)[C@H](CCSC)NC(=O)[C@H](CCC(=O)O)NC(=O)[C@H](CCCCN)NC(=O)[C@H](CO)NC(=O)[C@H](Cc1ccccc1)NC(C)=O)[C@@H](C)O)C(=O)N[C@@H](CCCNC(=N)N)C(=O)N[C@@H](CO)C(=O)N[C@H](C(=O)N[C@@H](Cc1ccc(O)cc1)C(=O)N[C@@H](CCC(=O)O)C(=O)N[C@@H](CCC(=O)O)C(=O)NCC(=O)N[C@@H](CCC(=O)O)C(N)=O)[C@@H](C)CC	ERBB2	binding, SPR			0.047
O=C(Nc1ccccc1SSc1ccccc1NC(=O)c1ccccc1)c1ccccc1	Programmed cell death 1 ligand 1 (CD274, Homo sapiens, UniProt Q9NZQ7)	binding, SPR			0.0776
C=CCN=S(=O)(c1cc(Cl)cc(Cl)c1)N1C2CCCC1C(C=C)CN(Cc1ccccn1)C2=O (centres unmarked)	uncharacterized protein, residues 23-253 (Pseudomonas aeruginosa, UniProt Q9HYX8)	binding, competitive fluorescence polarization		30 min, protein 40 nM, together with: fluorescent tracer 1 nM	> 40
Cn1c2cccc(=O)c-2nc2ccccc21	TetR-family regulator NalD (Pseudomonas aeruginosa, UniProt Q9HY46)	binding, microscale thermophoresis		wild-type protein	31.7
CC[C@H](C)[C@H](NC(=O)[C@H](CCCCNC(=O)CN(CCNC(=O)CN(CCNC(=O)CN(CCNC(=O)CN(CCNC(=O)[C@H](CCCNC(=N)N)NC(C)=O)C(=O)Cn1ccc(N)nc1=O)C(=O)Cn1cnc2c(=O)[nH]c(N)nc21)C(=O)Cn1cnc2c(=O)[nH]c(N)nc21)C(=O)Cn1ccc(N)nc1=O)NC(=O)[C@H](C)NC(=O)[C@H](CCCNC(=N)N)NC(=O)[C@H](CCCCN)NC(=O)[C@H](CCC(N)=O)NC(=O)[C@H](CCC(N)=O)NC(=O)[C@H](CC(N)=O)NC(=O)[C@@H](NC(=O)[C@H](CCCN)NC(=O)[C@H](CC(N)=O)NC(=O)[C@@H]1CCCN1C(=O)[C@H](CC(=O)O)NC(=O)[C@H](CC(C)C)NC(=O)[C@H](C)NC(=O)[C@H](CS)NC(=O)[C@H](CCCC(=O)NCCN(CC(=O)NCCN(CC(=O)NCCN(CC(=O)NCCN(CC(N)=O)C(=O)Cn1cnc2c(=O)[nH]c(N)nc21)C(=O)Cn1ccc(N)nc1=O)C(=O)Cn1ccc(N)nc1=O)C(=O)Cn1cnc2c(=O)[nH]c(N)nc21)NC(=O)[C@H](Cc1c[nH]c2ccccc12)NC(=O)[C@H](Cc1ccc(O)cc1)NC(=O)[C@H](CCCNC(=N)N)NC(=O)[C@H](CC(N)=O)NC(=O)[C@H](CCCNC(=N)N)NC(=O)[C@H](CC1CCCCC1)NC(=O)[C@H](CCC(=O)O)NC(=O)[C@H](CCCCN)NC(C)=O)[C@@H](C)O)C(=O)N[C@@H](CCCNC(=N)N)C(=O)N[C@@H](CO)C(=O)N[C@H](C(=O)N[C@@H](Cc1ccc(O)cc1)C(=O)N[C@@H](CCC(=O)O)C(=O)N[C@@H](CCC(=O)O)C(=O)NCC(N)=O)[C@@H](C)CC	ERBB2	binding, SPR			0.11
CCC(C)C(NC(=O)Nc1ccc2c(c1)OCO2)C(=O)O (centres unmarked)	Beta-lactamase (ampC, Escherichia coli K-12, UniProt P00811)				4100
CSCC[C@@H](N)C(=O)N[C@H](C)C(=O)N[C@H](C)C(=O)N[C@@H](C(=O)N[C@H](C)C(=O)NCC(=O)N[C@H](CC(C)C)C(=O)N[C@H](Cc1ccc(O)cc1)C(=O)NCC(=O)N[C@H](CC(C)C)C(=O)NCC(=O)N[C@H](CCC(=O)O)C(=O)N[C@H](CC(=O)O)C(=O)N[C@H](CCCNC(=N)N)C(=O)N[C@H](CCC(N)=O)C(=O)N[C@H](Cc1c[nH]cn1)C(=O)N[C@H](CCCNC(=N)N)C(=O)N[C@H](CCCCN)C(=O)N[C@H](CCCCN)C(=O)N[C@H](CCC(N)=O)C(N)=O)C(C)C	Sh, DEL6-46 (Drosophila melanogaster, UniProt P08510)	ion current, blocker, inside-out patch clamp	Xenopus oocytes	range over 50 µM, pH 7.0, 22–24 °C, at 0 mV	8.9
CC[C@H](C)[C@H](NC(=O)[C@H](CCC(=O)O)NC(=O)[C@H](CCC(=O)O)NC(=O)[C@H](Cc1ccccc1)NC(=O)[C@H](CCCCN)NC(=O)[C@@H]1CCCN1C(=O)[C@H](Cc1c[nH]cn1)NC(=O)[C@H](CCCCN)NC(=O)[C@H](CO)NC(=O)[C@H](CC(C)C)NC(=O)[C@H](Cc1c[nH]cn1)NC(C)=O)C(=O)N[C@@H](CC(C)C)C(=O)N[C@H](C(=O)N[C@@H](CCCNC(=N)N)C(=O)N[C@@H](CC(C)C)C(=O)N[C@@H](CCCNC(=N)N)C(=O)N[C@@H](CC(C)C)C(=O)N[C@@H](CCC(N)=O)C(N)=O)[C@@H](C)O	Calmodulin-1, C-lobe (CALM1, Homo sapiens, UniProt P0DP23)	ITC		C-lobe, together with: 1 mM CaCl2	5.56
CC(C)[C@H](NC(=O)[C@H](CCCNC(=N)N)NC(=O)[C@H](Cc1c[nH]c2ccccc12)NC(=O)CN)C(=O)N[C@@H](CO)C(=O)N[C@@H](CCC(=O)O)C(=O)N[C@@H](Cc1ccccc1)C(=O)NCC(=O)NCC(=O)NCC(=O)N[C@@H](CO)C(=O)N[C@@H](CCCCNC(=S)Nc1ccc2c(c1)C(=O)OC21c2ccc(O)cc2Oc2cc(O)ccc21)C(=O)O	cowpea mosaic virus	competitive phage ELISA			~0.7
O=C(N[C@@H]1c2ccccc2C[C@H]1N1CCCC1)c1ccc(-c2ccnc3[nH]ccc23)nc1	Serine/threonine-protein kinase PAK 5 (PAK5, Homo sapiens, UniProt Q9P286)	binding, competition with immobilised ligand			0.18
CC(=O)N[C@@H](CO)C(=O)N[C@@H](Cc1ccccc1)C(=O)N[C@@H](CCC(=O)O)C(=O)N[C@@H](Cc1ccccc1Cl)C(=O)N1CC[C@@H]2C=C[C@H]3CC[C@@H](C(=O)N4CC[C@@H]5C=C[C@H]6CC[C@@H](C(=O)N[C@H](C(=O)N[C@@H](CCC(=O)O)C(=O)N[C@@H](CC(=O)O)C(=O)N[C@@H](CCC(=O)O)C(=O)N[C@@H](CC(C)C)C(N)=O)[C@@H](C)O)N6C(=O)[C@H]54)N3C(=O)[C@H]21	Vasodilator-stimulated phosphoprotein (VASP, Homo sapiens, UniProt P50552)	binding, fluorescence			0.3

Repeated from above:
SMILES	target	assay	system	setting	Kd [µM]
CC(C)[C@H](NC(=O)[C@H](CCCNC(=N)N)NC(=O)[C@H](Cc1c[nH]c2ccccc12)NC(=O)CN)C(=O)N[C@@H](CO)C(=O)N[C@@H](CCC(=O)O)C(=O)N[C@@H](Cc1ccccc1)C(=O)NCC(=O)NCC(=O)NCC(=O)N[C@@H](CO)C(=O)N[C@@H](CCCCNC(=S)Nc1ccc2c(c1)C(=O)OC21c2ccc(O)cc2Oc2cc(O)ccc21)C(=O)O	cowpea mosaic virus	competitive phage ELISA			~0.7
